Results gathered from unrelated publications.
“And” joins repeats or separate records; there may be more than shown. Numbers after ± are the reported error.
Genome polyprotein NS3 helicase domain: Genome polyprotein, NS3 helicase domain (Hepatitis C virus genotype 1b, UniProt Q9WMX2)
WD repeat-containing protein 91 WD40 domain, residues 392–747: WD repeat-containing protein 91, WD40 domain, residues 392–747 (Homo sapiens, UniProt A4D1P6)
UniProt A4D1P6, sequence (whole entry, looked up): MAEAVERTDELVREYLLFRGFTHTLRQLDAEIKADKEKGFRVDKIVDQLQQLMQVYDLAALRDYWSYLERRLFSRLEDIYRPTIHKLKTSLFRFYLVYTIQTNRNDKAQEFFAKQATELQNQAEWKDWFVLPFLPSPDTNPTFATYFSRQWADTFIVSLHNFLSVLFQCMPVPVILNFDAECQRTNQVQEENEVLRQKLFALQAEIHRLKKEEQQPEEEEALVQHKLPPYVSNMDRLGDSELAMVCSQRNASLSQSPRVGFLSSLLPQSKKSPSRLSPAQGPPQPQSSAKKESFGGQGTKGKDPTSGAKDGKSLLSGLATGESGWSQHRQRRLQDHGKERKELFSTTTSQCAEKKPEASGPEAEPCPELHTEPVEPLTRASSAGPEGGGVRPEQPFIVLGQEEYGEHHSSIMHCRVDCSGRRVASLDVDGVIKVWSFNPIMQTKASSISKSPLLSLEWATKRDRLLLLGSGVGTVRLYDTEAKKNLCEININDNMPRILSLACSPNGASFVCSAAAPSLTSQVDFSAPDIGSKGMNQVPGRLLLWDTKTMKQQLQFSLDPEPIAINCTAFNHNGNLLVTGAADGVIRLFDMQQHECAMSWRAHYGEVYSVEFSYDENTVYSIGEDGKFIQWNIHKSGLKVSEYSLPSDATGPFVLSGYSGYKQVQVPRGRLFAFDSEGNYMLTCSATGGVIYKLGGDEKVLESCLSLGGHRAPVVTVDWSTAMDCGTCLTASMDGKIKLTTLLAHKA
DRD3: D(3) dopamine receptor (DRD3, Homo sapiens, UniProt P35462)
UniProt Q64663, sequence (whole entry, unmodified, looked up): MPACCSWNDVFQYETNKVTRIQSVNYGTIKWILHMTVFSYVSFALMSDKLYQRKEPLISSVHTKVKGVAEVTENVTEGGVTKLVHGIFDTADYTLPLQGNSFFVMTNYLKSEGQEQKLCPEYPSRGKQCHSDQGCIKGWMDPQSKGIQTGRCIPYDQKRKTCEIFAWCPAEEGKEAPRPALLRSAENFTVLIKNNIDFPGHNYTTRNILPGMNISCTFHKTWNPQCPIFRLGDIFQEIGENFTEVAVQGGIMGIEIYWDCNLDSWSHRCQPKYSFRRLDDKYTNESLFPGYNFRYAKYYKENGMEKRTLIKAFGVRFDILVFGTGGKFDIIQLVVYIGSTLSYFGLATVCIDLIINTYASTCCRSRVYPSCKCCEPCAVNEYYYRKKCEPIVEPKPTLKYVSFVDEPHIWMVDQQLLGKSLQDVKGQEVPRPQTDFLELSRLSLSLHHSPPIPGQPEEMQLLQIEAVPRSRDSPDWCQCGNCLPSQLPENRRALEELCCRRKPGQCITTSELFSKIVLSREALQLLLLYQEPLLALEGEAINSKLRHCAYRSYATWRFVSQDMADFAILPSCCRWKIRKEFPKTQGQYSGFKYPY
UniProt P51575, sequence (whole entry, unmodified, looked up): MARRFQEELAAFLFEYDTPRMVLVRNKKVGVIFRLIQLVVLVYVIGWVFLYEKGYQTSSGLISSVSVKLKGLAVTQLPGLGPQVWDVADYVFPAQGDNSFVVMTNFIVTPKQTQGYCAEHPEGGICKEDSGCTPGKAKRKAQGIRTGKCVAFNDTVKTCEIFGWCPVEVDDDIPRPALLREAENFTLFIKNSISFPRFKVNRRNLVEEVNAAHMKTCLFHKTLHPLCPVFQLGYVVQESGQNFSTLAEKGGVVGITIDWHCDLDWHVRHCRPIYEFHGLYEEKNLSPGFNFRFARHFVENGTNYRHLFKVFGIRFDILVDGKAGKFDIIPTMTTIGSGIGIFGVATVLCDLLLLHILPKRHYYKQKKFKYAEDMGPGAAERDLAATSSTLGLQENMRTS
UniProt P35462, sequence (whole entry, looked up): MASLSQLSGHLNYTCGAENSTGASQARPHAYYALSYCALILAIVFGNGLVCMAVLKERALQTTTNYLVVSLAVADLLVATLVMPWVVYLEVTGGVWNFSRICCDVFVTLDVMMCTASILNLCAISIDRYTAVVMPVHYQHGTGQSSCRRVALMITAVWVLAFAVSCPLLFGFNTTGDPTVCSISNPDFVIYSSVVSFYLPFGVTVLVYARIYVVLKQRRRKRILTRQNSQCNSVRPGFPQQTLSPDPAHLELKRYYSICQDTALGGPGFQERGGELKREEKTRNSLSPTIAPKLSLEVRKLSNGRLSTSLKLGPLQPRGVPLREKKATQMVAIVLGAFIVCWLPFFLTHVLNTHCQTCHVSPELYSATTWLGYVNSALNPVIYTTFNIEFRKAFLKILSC
UniProt Q92570, sequence (whole entry, looked up): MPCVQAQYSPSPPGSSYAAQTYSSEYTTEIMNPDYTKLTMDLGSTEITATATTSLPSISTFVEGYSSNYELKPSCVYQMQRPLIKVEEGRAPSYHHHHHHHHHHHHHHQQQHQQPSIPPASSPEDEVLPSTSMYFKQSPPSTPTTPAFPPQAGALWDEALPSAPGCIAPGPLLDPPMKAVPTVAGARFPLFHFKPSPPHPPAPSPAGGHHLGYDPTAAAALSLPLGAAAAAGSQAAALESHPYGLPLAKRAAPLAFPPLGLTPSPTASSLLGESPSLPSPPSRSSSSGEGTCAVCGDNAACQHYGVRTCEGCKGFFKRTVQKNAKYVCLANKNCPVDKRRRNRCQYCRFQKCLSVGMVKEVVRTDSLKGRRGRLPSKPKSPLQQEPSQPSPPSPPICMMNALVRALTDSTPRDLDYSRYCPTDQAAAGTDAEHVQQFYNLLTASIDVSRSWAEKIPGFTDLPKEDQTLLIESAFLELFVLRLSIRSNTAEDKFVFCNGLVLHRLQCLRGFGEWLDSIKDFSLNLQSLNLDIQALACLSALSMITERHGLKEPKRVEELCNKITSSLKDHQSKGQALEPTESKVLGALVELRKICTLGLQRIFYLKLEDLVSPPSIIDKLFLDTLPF
UniProt P52790, sequence (whole entry, looked up): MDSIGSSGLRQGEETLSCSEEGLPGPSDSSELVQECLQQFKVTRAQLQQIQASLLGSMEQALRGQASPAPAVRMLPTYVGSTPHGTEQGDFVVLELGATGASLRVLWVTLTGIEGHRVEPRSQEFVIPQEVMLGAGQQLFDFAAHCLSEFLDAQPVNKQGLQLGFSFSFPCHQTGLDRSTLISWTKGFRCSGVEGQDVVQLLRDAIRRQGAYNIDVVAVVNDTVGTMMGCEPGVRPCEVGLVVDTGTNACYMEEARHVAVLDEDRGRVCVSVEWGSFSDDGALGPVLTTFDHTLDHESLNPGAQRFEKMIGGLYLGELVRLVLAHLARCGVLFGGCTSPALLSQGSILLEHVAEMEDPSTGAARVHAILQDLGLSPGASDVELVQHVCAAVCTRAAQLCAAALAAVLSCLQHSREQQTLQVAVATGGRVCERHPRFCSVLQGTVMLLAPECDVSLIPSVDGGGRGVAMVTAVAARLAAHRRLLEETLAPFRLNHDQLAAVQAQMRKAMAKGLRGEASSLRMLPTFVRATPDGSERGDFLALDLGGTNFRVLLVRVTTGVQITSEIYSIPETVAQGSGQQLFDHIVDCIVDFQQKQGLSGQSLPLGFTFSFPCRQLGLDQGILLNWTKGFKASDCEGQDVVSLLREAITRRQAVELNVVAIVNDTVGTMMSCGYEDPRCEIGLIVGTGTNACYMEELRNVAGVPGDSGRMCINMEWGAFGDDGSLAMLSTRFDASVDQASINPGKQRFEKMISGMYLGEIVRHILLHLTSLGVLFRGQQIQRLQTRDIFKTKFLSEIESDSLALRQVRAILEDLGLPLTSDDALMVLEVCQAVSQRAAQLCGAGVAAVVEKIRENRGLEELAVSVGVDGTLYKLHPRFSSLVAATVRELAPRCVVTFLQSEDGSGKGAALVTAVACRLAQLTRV
UniProt Q99619, sequence (whole entry, looked up): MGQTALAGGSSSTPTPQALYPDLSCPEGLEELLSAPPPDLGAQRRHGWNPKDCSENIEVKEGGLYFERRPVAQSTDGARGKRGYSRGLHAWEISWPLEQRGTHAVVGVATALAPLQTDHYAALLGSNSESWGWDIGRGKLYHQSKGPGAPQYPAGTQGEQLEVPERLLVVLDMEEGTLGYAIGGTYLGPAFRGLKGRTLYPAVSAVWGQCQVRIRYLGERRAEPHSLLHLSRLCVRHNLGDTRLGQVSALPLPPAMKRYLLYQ
UniProt Q9NWT6, sequence (whole entry, unmodified, looked up): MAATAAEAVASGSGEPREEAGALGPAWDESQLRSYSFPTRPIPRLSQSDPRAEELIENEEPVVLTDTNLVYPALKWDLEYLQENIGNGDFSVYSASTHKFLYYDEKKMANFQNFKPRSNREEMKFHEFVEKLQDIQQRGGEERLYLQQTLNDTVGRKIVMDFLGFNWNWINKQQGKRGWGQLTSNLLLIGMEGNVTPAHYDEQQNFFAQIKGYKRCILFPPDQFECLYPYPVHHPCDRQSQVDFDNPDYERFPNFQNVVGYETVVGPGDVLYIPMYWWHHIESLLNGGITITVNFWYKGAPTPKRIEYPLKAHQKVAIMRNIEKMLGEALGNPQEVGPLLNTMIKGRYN
UniProt P03372, sequence (whole entry, looked up): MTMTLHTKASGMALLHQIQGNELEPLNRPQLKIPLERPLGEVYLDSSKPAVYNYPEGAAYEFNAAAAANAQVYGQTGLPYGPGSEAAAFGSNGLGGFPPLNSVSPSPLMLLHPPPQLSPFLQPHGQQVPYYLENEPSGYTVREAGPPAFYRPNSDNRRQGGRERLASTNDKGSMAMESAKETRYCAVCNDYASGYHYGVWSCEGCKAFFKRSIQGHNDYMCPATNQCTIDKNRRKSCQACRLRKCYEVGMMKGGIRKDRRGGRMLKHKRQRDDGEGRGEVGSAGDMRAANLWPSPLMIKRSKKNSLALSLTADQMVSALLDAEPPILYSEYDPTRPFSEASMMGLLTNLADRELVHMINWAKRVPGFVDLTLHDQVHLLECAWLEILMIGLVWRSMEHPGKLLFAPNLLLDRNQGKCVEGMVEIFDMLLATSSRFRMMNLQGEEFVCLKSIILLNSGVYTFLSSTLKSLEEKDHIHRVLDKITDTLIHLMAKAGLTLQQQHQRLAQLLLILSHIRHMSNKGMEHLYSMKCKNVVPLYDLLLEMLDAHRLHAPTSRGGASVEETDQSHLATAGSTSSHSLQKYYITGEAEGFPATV

| SMILES | tested on | assay | system | conditions | how to read | quantity | result |
| --- | --- | --- | --- | --- | --- | --- | --- |
| O=C1Cc2cc(CCN3CCN(c4nsc5ccccc45)CC3)c(Cl)cc2N1 | Genome polyprotein NS3 helicase domain | DNA binding, inhibitor | hepatitis C virus | 100 µM, added: Cy5-dT15 DNA |  | inhibition | 2% |
| OC[C@H]1OC(O)[C@H](O)[C@@H](O)[C@@H]1O (stereo partly shown) | Hexokinase-3 (HK3, Homo sapiens, UniProt P52790) | enzyme activity, coupled G6PDH |  | partial substrate inhibition fit, added: ATP 20 mM |  | kcat | 54 ± 22 s⁻¹ |
| C=C1C(=O)O[C@@H]2C[C@@]3(C)CCCC(=C)[C@@H]3C[C@H]12 | Nuclear receptor subfamily 4 group A member 3, ligand-binding domain (Homo sapiens, UniProt Q92570) | reporter gene, Gal4 hybrid reporter |  | 10 µM | relative to: vehicle | activation | 0.96 fold |
| Cc1cccc(N2CC(C(=O)O)CC2=O)c1 (stereo not shown) | SPRY domain-containing SOCS box protein 2, SPRY domain (Homo sapiens, UniProt Q99619) | binding, affinity selection mass spectrometry |  |  | relative to: other proteins in batch | log fold enrichment | 0.152 |
| CCN(CC)Cc1cn(Cc2ccc(C(=O)N[C@@H]3CCc4c(C#N)cccc43)cc2)nn1 | WD repeat-containing protein 91 WD40 domain, residues 392–747 | SPR |  | 45 µM |  | binding | 123% and 129% |
| COc1ccccc1-n1nnnc1SCC(=O)Nc1ccccc1SC | Cyclin-dependent kinase 2, with cyclin A (CDK2, Homo sapiens, UniProt P24941) |  |  |  |  | Kd | > 100 µM |
| O=C(O)[C@@H](O)[C@@H](O)[C@H](O)[C@H](O)CO | Uncharacterized protein (Chromohalobacter israelensis, UniProt Q1QT90) | binder, thermal shift |  |  |  | delta Tm | 7.1 °C |
| C[C@@H](CC(=O)N1CCCC1)NC(=O)CCS(=O)(=O)Nc1ccc(C(F)(F)F)c(Cl)c1 | DRD3 | Go activation, antagonist, BRET |  | added: dopamine |  | IC50 | > 100 µM |
| Cn1c(=O)c2[nH]cnc2n(C)c1=O | Glutamate receptor 2 (Homo sapiens, UniProt P42262) | ion current, positive allosteric modulator, SyncroPatch patch clamp | HEK293 | 30 µM |  | potentiation | 100% |
| CC[C@H](C)[C@H](NC(=O)[C@H](CCSC)NC(=O)[C@H](CCSC)NC(=O)[C@H](C)NC(=O)[C@H](C)NC(=O)[C@H](Cc1ccc(O)cc1)NC(=O)[C@H](C)NC(=O)[C@H](CCCCN)NC(=O)CNC(=O)[C@@H](NC(=O)[C@@H](NC(=O)[C@H](CCSC)NC(=O)[C@H](Cc1c[nH]cn1)NC(=O)CN)[C@@H](C)O)C(C)C)C(=O)N[C@@H](CCSC)C(=O)N[C@@H](CCC(=O)O)C(=O)N[C@@H](Cc1ccc(O)cc1)C(=O)N[C@@H](Cc1ccc(O)cc1)C(=O)N[C@@H](CCCNC(=N)N)C(=O)N[C@@H](CCC(N)=O)C(=O)N[C@@H](CO)C(=O)N[C@@H](CCCCN)C(=O)N[C@@H](C)C(=O)N[C@@H](CCCCN)C(=O)N[C@@H](CCCCN)C(=O)N[C@@H](CC(C)C)C(=O)N[C@@H](CCC(N)=O)C(=O)N[C@@H](C)C(=O)N[C@@H](CCSC)C(=O)N[C@@H](CCCNC(=N)N)C(=O)O | Calmodulin-1, Ca2+-bound C-lobe (CALM1, Homo sapiens, UniProt P0DP23) | binding, isothermal titration calorimetry |  | pH 7.4, 15 °C, C-lobe, CaV2.1 IQ domain, added: Ca2+ |  | ΔH | -4.64 ± 0.03 kcal/mol |
| COc1ccc(-c2oc3c(CC=C(C)C)c(O[C@@H]4O[C@H](CO)[C@@H](O)[C@H](O)[C@H]4O)cc(O)c3c(=O)c2O)cc1 | Estrogen receptor (ESR1, Homo sapiens, UniProt P03372) | array formation | PRL-HeLa |  | relative to: EC50 ERβ over EC50 ERα | selectivity ratio | 0.267 |
| Nc1ncnc2c1ncn2[C@@H]1O[C@H](COP(=O)(O)CP(=O)(O)OP(=O)(O)O)[C@@H](O)[C@H]1O | P2X purinoceptor 1 (P2RX1, Homo sapiens, UniProt P51575, R292A) | saturation binding | HEK293 | 103 nM |  | specific binding | 87 CCPM and 218 CCPM |
| COc1cc(-c2cncc3c2CN(C)Cc2cc(N4CCNCC4)ccc2-3)cc(OC)c1OC | CAMK2D (Homo sapiens, UniProt Q13557) | kinase activity |  | 1 µM, human enzyme, added: ATP 10 µM | relative to: DMSO control | remaining activity | 84% |
| CCOc1ccc(C(C)=O)cc1Cc1c(O)nc(N)nc1O | CDK2 (Homo sapiens, UniProt P24941) | binding |  |  |  | Kd | > 100 µM |
| C[C@@H](c1ccc(-n2cnc3c(N)ncnc32)cc1)N1CCc2nn(C)c(Cc3ccccc3)c2C1=O | CIT (Homo sapiens, UniProt O14578) | KINOMEscan |  | 0.1 µM | relative to: DMSO control | remaining binding | 100% |
| COC(=O)CCc1ccc(C(=O)N/N=C/C(Br)=C/c2ccccc2)cc1 | HDAC1 (Homo sapiens, UniProt Q13547) | inhibitor, fluorogenic |  | 5 and 10 µM | relative to: SAHA | enzyme activity | no effect |
| O=C(/C=C/c1ccc(O)cc1)c1ccc(O)cc1O | Genome polyprotein NS3 helicase domain | DNA binding, inhibitor | hepatitis C virus | 100 µM, added: Cy5-dT15 DNA |  | inhibition | 0% |
| CC(C)[C@H](NC(=O)[C@@H](NC(=O)CCCc1cn(CC(O)CN2CCN(CC(=O)O)CCN(CC(=O)O)CCN(CC(=O)O)CC2)nn1)[C@@H](C)O)C(=O)N[C@@H](CCCNC(=N)N)C(=O)N[C@H](C(=O)N[C@@H](CO)C(=O)N[C@@H](C)C(=O)N[C@@H](CC(=O)O)C(=O)O)[C@@H](C)O (stereo partly shown) |  | ICP-MS, refers to: gadolinium | healthy men, urine | intravenous, 0.04 mmol/kg |  | percent dose excreted | 92.5 ± 29% |
| CC(C)=CCC/C(C)=C/CC/C(C)=C/COP(=O)(O)OP(=O)(O)O | rat protein farnesyltransferase | substrate, HPLC prenylation |  |  |  | Km | 2.5 ± 0.7 µM |
| N#CC1CCN(C(=O)c2ccc(CNS(=O)(=O)c3ccccc3)cc2)CC1 | WD repeat-containing protein 91 WD40 domain, residues 392–747 | SPR |  | 45 µM |  | binding | -2% and -21% |
| Cc1[nH]c(C)c(S(=O)(=O)Nc2ccc(C(C)(C)O)c(Cl)c2)c1C(=O)N1CCC(F)(F)C1 | DRD3 | β-arrestin recruitment, antagonist, PathHunter |  | added: dopamine EC80 |  | IC50 | > 100 µM |
| CCN(CC)CCOc1ccc2c(c1)C(=O)c1cc(OCCN(CC)CC)ccc1-2 | ACHE (Homo sapiens, UniProt P22303) | enzyme activity |  |  |  | Hill slope | 1 |
| O=O | HIF1AN (Homo sapiens, UniProt Q9NWT6, Y93A) | substrate, MALDI-TOF MS |  | pH 7.00, 37.0 °C, mutant Y93A, added: CTAD peptide 80 µM, 2-oxoglutarate 100 µM |  | Km | 440 ± 150 µM |
| [H]/N=C(/N)NCC(=O)O | SLC6A6 (Homo sapiens, UniProt P31641, G62A) | binding, microscale thermophoresis |  | 30.5 nM, room temperature, added: 50 nM labelled protein | higher = more binding | normalised MST signal | 0.0617 |
| N[C@H](C(=O)O)[C@H]1C[C@@H]1C(=O)O | Genome polyprotein NS3 helicase domain | DNA binding, inhibitor | hepatitis C virus | 100 µM, added: Cy5-dT15 DNA |  | inhibition | 2% |
| Nc1ncnc2c1ncn2[C@@H]1O[C@H](COP(=O)(O)OP(=O)(O)OP(=O)(O)O)[C@@H](O)[C@H]1O | P2X purinoceptor 7 (P2rx7, Rattus norvegicus, UniProt Q64663) | ion current, agonist, two-electrode voltage clamp | Xenopus laevis oocytes | 30 µM | relative to: 100 µM compound response | normalized current | 0.92 and 0.8 and 0.72 |
| N#Cc1cccc(OCc2cn(-c3ccc(C(=O)N4CCC(C#N)CC4)cc3)nn2)c1 | WD repeat-containing protein 91 WD40 domain, residues 392–747 | binding, SPR single-concentration screen |  | 45 µM |  | SPR response | 9.5 RU and 15.1 RU |
| CC(C)(Sc1ccc(CCN(CCCCC2CCCCC2)C(=O)NC2CCCCC2)cc1)C(=O)O | Genome polyprotein NS3 helicase domain | DNA binding, inhibitor | hepatitis C virus | 100 µM, added: Cy5-dT15 DNA |  | inhibition | 3% |

For quick reference, copied from above:
| SMILES | tested on | assay | system | conditions | how to read | quantity | result |
| --- | --- | --- | --- | --- | --- | --- | --- |
| N#Cc1cccc(OCc2cn(-c3ccc(C(=O)N4CCC(C#N)CC4)cc3)nn2)c1 | WD repeat-containing protein 91 WD40 domain, residues 392–747 | binding, SPR single-concentration screen |  | 45 µM |  | SPR response | 9.5 RU and 15.1 RU |
| CC(C)(Sc1ccc(CCN(CCCCC2CCCCC2)C(=O)NC2CCCCC2)cc1)C(=O)O | Genome polyprotein NS3 helicase domain | DNA binding, inhibitor | hepatitis C virus | 100 µM, added: Cy5-dT15 DNA |  | inhibition | 3% |
